Measured values pooled from the literature.
Numbers after ± are the reported error.

| Structure (SMILES) | test | test system | conditions | scale | quantity | result |
| --- | --- | --- | --- | --- | --- | --- |
| COc1cc2c(Oc3ccc4[nH]c(C)cc4c3F)ccnc2cc1OCC1(N)CC1 |  | paediatric recurrent refractory sarcoma | 10 mg |  | Vomiting incidence | 50% |
| CCNCCCNC/C=C\CNCCCNCC |  | human, advanced solid tumours | intravenous, dose not given | reference: patients | serious TEAE, intestinal obstruction | 6.5% |
| NCCCC[C@@H]1NC(=O)[C@@H](Cc2c[nH]c3ccccc23)NC(=O)[C@H](c2ccccc2)NC(=O)[C@@H]2C[C@@H](OC(=O)NCCN)CN2C(=O)[C@H](Cc2ccccc2)NC(=O)[C@H](Cc2ccc(OCc3ccccc3)cc2)NC1=O |  | healthy human volunteers | 600 µg twice daily |  | subjects with adverse event Vomiting | 11% |
| CCN1[C@@H](C(=O)NC23CCC(C(=O)O)(CC2)CC3)[C@H](c2cccc(Cl)c2F)[C@]2(C(=O)Nc3cc(Cl)ccc32)C12CCCCC2 |  | patients with advanced solid tumours | oral, 100 mg |  | Lymphocytopenia incidence | 27.3% |
| COc1ncccc1-c1cnn2ccc(N3CCN(C(=O)OC(C)C)CC3)nc12 |  | mouse, formalin test, brain | oral, 60 mg/kg, 60 min |  | drug concentration | 115 µM |
| N=C(N)NCCC[C@H](NC(=O)[C@H](Cc1ccccc1)NC(=O)[C@H](CCC(N)=O)NC(=O)OCc1ccccc1)C(=O)c1nccs1 |  | C57BL/6J mice | intravenous, 5 mg/kg |  | toxicity | not toxic |
| COc1ccc2c(c1)CN(C(=O)CCN1CCC(Cc3ccccc3)CC1)CC[S@@+]2[O-] |  | female beagle dogs, chronic AV block | intravenous, 3 mg/kg, 3 h | reference: before dosing | QTcF prolongation | 13 ms |
| Nc1ncnc2c1ncn2[C@@H]1O[C@@H]2COP(=O)([S-])O[C@@H]3[C@H](O)[C@@H](COP([O-])(=S)O[C@H]2[C@H]1O)O[C@H]3n1cnc2c(N)ncnc21.[Na+].[Na+] (some centres unmarked) |  | non-tumor-bearing mice, serum | intravenous, 1 mg/kg, toxicity study |  | globulin | 23 ± 2.45 g/L |
| CCN1CCN(Cc2ccc(Nc3ncc(F)c(-c4cc(F)c5nc6n(c5c4)[C@H](C)CCC6)n3)nc2)CC1 |  | advanced solid tumour patients | dose not given, Phase Ia monotherapy |  | Dizziness incidence, any grade | 33.3% |
| COc1ccc(-c2c(-c3ccc(C#N)c(F)c3)nc(N3CCC(N)CC3)n(C)c2=O)cc1F | item: small intestinal obstruction | human patients | oral, dose not given, dose escalation |  | serious TEAE incidence | 2% |
| CO[C@H]1C[C@@H]2CC[C@@H](C)[C@@](O)(O2)C(=O)C(=O)N2CCCC[C@H]2C(=O)O[C@H]([C@H](C)C[C@@H]2CC[C@@H](OC(=O)NCCOCCOCCOCCOCCOCCOCCOCCOCCC(=O)N3CCc4cc(Cn5nc(-c6ccc7oc(N)nc7c6)c6c(N)ncnc65)ccc4C3)[C@H](OC)C2)C[C@@H](O)[C@H](C)/C=C(\C)[C@@H](O)[C@@H](OC)C(=O)[C@H](C)C[C@H](C)/C=C/C=C/C=C/1C |  | patients with advanced solid tumours | intravenous, 6 mg weekly, any grade |  | maculopapular rash incidence | 25% |
| COc1ccc2nc3cc(Cl)ccc3c(Nc3cc(CN4CCCC4)c(O)c(CN4CCCC4)c3)c2n1 |  | mouse, blood | intraperitoneal, 57 mg/kg |  | basophil count | 0.09 10⁹/L |
| COc1cccc(N=Nc2ccc3[nH]cc(CCN(C)C)c3c2)c1 | light irradiation | solution | together with: light 385 nm |  | cis isomer at photostationary state | 81% |
| CC(C)CC(=O)OC[C@H]1O[C@@](C#N)(c2ccc3c(N)ncnn23)[C@H](O)[C@@H]1O | plasma protein binding | rat plasma | 0.9 µM |  | bound fraction | 0.921 |

For quick reference, copied from above:
| Structure (SMILES) | test | test system | conditions | scale | quantity | result |
| --- | --- | --- | --- | --- | --- | --- |
| CCN1[C@@H](C(=O)NC23CCC(C(=O)O)(CC2)CC3)[C@H](c2cccc(Cl)c2F)[C@]2(C(=O)Nc3cc(Cl)ccc32)C12CCCCC2 |  | patients with advanced solid tumours | oral, 100 mg |  | Lymphocytopenia incidence | 27.3% |
